Published values collected from several papers.
Each line is one published result; not all experiments were run side by side. “And” joins repeats or separate records; there may be more than shown. ± marks the error that the study gave.
CDK5 with p25: Cyclin-dependent kinase 5, with p25 (CDK5, Homo sapiens, UniProt Q00535)
Sequence of UniProt Q00535 (whole entry, looked up): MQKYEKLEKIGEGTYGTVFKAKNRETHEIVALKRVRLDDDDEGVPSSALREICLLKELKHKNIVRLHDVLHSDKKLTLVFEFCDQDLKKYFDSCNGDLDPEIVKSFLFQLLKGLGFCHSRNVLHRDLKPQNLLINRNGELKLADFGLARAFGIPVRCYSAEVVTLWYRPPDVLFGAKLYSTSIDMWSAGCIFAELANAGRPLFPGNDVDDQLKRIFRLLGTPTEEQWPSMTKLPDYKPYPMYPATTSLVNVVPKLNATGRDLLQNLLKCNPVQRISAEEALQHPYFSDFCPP
B1: chain MSEILPYGEDKMGRFGADPEGSDLSFSCRLQDTNSFFAGNQAKRPPKLGQIGRAKRVVIEDDRIDDVLKGMGEKPPSGV
Sequence of UniProt Q64663 (whole entry, unmodified, looked up): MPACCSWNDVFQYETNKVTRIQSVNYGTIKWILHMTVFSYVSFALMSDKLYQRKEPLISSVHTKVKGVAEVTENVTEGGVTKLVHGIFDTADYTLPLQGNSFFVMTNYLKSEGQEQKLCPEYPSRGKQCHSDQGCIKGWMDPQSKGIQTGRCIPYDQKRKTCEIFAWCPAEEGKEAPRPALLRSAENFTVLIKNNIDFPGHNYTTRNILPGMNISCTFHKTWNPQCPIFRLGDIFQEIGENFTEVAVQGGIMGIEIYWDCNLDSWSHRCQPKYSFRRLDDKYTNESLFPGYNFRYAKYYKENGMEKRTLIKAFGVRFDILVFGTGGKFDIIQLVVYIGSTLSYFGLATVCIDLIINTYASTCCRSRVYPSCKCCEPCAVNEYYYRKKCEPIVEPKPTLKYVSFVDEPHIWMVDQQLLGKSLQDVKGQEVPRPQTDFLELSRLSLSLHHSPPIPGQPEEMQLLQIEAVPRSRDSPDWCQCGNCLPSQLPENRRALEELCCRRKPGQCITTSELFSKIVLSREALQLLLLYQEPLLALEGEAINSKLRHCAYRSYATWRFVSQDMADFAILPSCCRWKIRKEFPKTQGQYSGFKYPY
Sequence of UniProt Q9UQM7 (whole entry, unmodified, looked up): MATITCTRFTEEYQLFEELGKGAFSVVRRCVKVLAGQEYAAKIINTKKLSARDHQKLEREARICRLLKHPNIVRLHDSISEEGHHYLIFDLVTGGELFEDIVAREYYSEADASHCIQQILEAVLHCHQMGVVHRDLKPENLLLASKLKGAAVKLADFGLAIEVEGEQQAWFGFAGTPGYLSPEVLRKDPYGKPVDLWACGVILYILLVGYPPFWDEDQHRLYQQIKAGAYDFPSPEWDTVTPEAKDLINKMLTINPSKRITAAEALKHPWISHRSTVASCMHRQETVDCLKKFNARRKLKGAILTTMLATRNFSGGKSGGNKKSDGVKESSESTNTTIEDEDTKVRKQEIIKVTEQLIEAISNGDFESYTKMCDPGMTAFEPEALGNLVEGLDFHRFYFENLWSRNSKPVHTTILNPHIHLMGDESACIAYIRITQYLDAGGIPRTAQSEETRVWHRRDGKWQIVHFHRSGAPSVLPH
Sequence of UniProt Q5ANA3 (whole entry, looked up): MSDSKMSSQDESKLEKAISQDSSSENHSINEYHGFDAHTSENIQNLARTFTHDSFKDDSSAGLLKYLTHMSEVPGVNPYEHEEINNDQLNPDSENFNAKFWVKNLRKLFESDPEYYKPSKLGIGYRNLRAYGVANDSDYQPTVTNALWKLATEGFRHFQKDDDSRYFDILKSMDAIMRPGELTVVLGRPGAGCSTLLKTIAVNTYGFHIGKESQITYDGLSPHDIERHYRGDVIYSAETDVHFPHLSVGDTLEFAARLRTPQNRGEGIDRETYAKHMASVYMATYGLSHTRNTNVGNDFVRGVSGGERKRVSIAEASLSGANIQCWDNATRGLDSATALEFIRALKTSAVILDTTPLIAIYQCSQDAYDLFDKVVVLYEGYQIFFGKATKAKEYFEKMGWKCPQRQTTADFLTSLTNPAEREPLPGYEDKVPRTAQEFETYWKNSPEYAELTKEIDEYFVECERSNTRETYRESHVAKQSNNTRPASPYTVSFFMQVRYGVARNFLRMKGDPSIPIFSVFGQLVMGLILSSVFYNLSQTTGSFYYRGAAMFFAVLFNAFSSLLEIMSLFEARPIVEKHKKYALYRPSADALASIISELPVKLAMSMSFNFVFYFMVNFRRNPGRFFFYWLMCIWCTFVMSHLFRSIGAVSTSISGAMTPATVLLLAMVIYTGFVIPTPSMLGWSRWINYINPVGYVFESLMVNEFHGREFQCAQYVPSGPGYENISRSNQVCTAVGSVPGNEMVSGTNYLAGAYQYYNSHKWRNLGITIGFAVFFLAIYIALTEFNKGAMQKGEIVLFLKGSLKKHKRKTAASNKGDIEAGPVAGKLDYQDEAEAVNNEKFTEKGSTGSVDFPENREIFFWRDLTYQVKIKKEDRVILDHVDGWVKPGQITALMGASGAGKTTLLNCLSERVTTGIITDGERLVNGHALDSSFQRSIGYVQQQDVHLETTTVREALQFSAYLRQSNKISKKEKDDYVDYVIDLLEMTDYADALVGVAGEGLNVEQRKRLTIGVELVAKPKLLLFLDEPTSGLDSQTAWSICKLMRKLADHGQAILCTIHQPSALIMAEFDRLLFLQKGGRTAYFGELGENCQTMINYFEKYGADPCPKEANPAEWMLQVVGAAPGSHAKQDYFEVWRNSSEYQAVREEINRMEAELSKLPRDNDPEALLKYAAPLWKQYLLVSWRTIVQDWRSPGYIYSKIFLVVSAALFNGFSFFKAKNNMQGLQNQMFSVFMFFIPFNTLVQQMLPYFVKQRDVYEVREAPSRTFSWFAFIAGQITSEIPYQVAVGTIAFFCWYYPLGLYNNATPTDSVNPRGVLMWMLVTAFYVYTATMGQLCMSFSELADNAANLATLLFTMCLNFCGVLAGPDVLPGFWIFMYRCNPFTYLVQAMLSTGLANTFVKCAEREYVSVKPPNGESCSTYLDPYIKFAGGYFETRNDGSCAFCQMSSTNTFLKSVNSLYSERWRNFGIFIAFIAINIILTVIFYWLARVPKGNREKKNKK

Substance	target or system	assay	test system	conditions	scale	endpoint	result
FNA / CGLSGLGVA-NH2 ([18F]FNA-labelled, C-amide)		ex vivo gamma counting	peptide, glioblastoma mouse model, kidney	60 min post injection, together with: 500-fold excess CooP blocking		tissue uptake	4.23 %ID/g
human ME2 K81R		enzyme activity, NADH absorbance		without fumarate, together with: L-malate varied		Hill coefficient	1.76 ± 0.09
BzATP	P2X purinoceptor 7 (P2rx7, Rattus norvegicus, UniProt Q64663, Q143A/R125A)	ion current, agonist, two-electrode voltage clamp	Xenopus laevis oocytes	33 µM	baseline: highest concentration response	normalized current	0.753 and 0.804 and 0.825
H-KQGTGKVQK-OH	HeLa nuclei	central DNA signal, confocal microscopy, PI staining	peptide	mean of nuclei, together with: MNase 10-2 U/mL	baseline: 0 U/mL MNase	normalised fluorescence intensity	0.423
KEAFWDRCLSVANLMSSKMLQINA	CDK5 with p25	phosphotransferase activity, radiometric	peptide	concentration not given, 10% DMSO, together with: histone substrate	baseline: p5-WT peptide	activity change	54%
caspofungin			adult ICU patients, mITT, serum	dose not given, day 30		aspartate aminotransferase	26.2 U/L
FGA (Homo sapiens, UniProt P02671)	DEPDC1B (Homo sapiens, UniProt Q8WUY9)	cross-linking MS		together with: DSSO		cross-linked residues	K437 to K215
Teicoplanin				2-6 °C		stock solution stability time	≤ 24 months
11-deoxycorticosterone	human CYP11B2	stopped-flow kinetic modelling		4-state closed model (best), together with: 40-fold excess adrenodoxin		association rate constant k4	1.635e+07 ± 31700 M⁻¹ s⁻¹
Peginesatide	UT7/EPO	RT-qPCR, refers to: CCL2		concentration not given, 90 min, normalized to HPRT1	baseline: vehicle	mRNA level	9.8 fold
milbemycin oxime	CDR1 (Candida albicans, UniProt Q5ANA3)	binding, microscale thermophoresis		2.5 µM		fraction bound	91.2%
KEAFWDRCLSVINLMSSKSLQINA	CDK5 with p25	phosphotransferase activity, radiometric	peptide	concentration not given, 10% DMSO, together with: histone substrate	baseline: p5-WT peptide	activity change	45%
human ME2 K57S		enzyme activity, NADH absorbance		with fumarate 3 mM, together with: L-malate varied		Hill coefficient	1 ± 0.01
adrenomedullin		RP-HPLC	HALO Peptide ES-C18 column	25 µM, acetic acid/acetonitrile, 10 min gradient		retention time	4.77 min
human ME2 R67A		enzyme activity, NADH absorbance		with fumarate 3 mM, together with: L-malate varied		Hill coefficient	1.2 ± 0.21
B1	CAMK2A (Homo sapiens, UniProt Q9UQM7, D135N)	binding, ITC	kinase domain D135N			ΔH	-6.88 kcal/mol and -7.89 kcal/mol
KESFWDRCLSVINLMSSKMLQINA	CDK5 with p25	phosphotransferase activity, radiometric	peptide	concentration not given, 10% DMSO, together with: histone substrate	baseline: p5-WT peptide	activity change	35%
Malic enzyme 2 S106K (human)		enzyme activity, NADH absorbance		with fumarate 3 mM, together with: L-malate varied		Hill coefficient	1.06 ± 0.02
KEVFWDRCLSVINLMSSKMLQINA	CDK5 with p25	phosphotransferase activity, radiometric	peptide	concentration not given, 10% DMSO, together with: histone substrate	baseline: p5-WT peptide	activity change	45%
colistin	Pseudomonas aeruginosa	broth microdilution	clinical isolate RKI 483/15-1			MIC	8 µg/mL
human ME2 M75L		enzyme activity, activator, NADH absorbance	recombinant enzyme	range over 0 to 5 mM, pH 7.4	baseline: wild type	activation fold	1.4
KEAFWDRCLSVINAMSSKMLQINA	CDK5 with p25	phosphotransferase activity, radiometric	peptide	concentration not given, 10% DMSO, together with: histone substrate	baseline: p5-WT peptide	activity change	42%

Some of these lines once more:
Substance	target or system	assay	test system	conditions	scale	endpoint	result
H-KQGTGKVQK-OH	HeLa nuclei	central DNA signal, confocal microscopy, PI staining	peptide	mean of nuclei, together with: MNase 10-2 U/mL	baseline: 0 U/mL MNase	normalised fluorescence intensity	0.423
KEAFWDRCLSVINLMSSKSLQINA	CDK5 with p25	phosphotransferase activity, radiometric	peptide	concentration not given, 10% DMSO, together with: histone substrate	baseline: p5-WT peptide	activity change	45%
Teicoplanin				2-6 °C		stock solution stability time	≤ 24 months
KEAFWDRCLSVANLMSSKMLQINA	CDK5 with p25	phosphotransferase activity, radiometric	peptide	concentration not given, 10% DMSO, together with: histone substrate	baseline: p5-WT peptide	activity change	54%
